# Measurements from different studies.
# Each line is one published result; not all experiments were run side by side.
# Organism: Staphylococcus aureus
Compound,test,test system,setting,MIC
CCCCCCCCCC[N+](C)(C)CCCCCCOc1cc(OCCCCCC[N+](C)(C)CCCCCCCCCC)cc(OCCCCCC[N+](C)(C)CCCCCCCCCC)c1.[Br-].[Br-].[Br-],,CA-MRSA USA300-0114,,1 µM
CC(=O)NC[C@H]1CN(c2ccc(N3CCN(C(=O)CN)CC3)c(F)c2)C(=O)O1,"microbial growth, broth dilution",NEWMAN,,50 µM
CCCCCC[N+](C)(C)CCCCCCCCCCOc1cc(OCCCCCCCCCC[N+](C)(C)CCCCCC)cc(OCCCCCCCCCC[N+](C)(C)CCCCCC)c1.[Br-].[Br-].[Br-],,SH1000 MSSA,,1 µM
Oc1c(Br)cc(Br)c2nc3cc(Cc4ccccc4)ccc3nc12,,147 MRSA clinical isolate,,0.39 µM
CC[C@H]1OC(=O)[C@H](C)[C@@H](OC(=O)Cc2ccccc2[N+](=O)[O-])[C@H](C)[C@@H](O[C@@H]2O[C@H](C)C[C@H](N(C)C)[C@H]2O)[C@](C)(OC)C[C@@H](C)C(=O)[C@H](C)[C@@H](O)[C@]1(C)O,,ATCC 43300 MRSA,,> 64 µg/mL
O=[N+]([O-])c1cc(Cl)c2cccnc2c1O,broth microdilution,ATCC 43300 MRSA,,2 µg/mL
CCCC(C)Oc1cccc(NC(=O)c2cccnc2)c1 (centres unmarked),"microbial growth, broth dilution",MB2865,,128 µg/mL
CC[C@H]1OC(=O)[C@H](C)[C@@H](OC(=O)Cc2ccc([N+](=O)[O-])cc2)[C@H](C)[C@@H](O[C@@H]2O[C@H](C)C[C@H](N(C)C)[C@H]2O)[C@](C)(OC)C[C@@H](C)C(=O)[C@H](C)[C@@H](O)[C@]1(C)O,,DSM 20231 MSSA,,0.1 µg/mL
CCCC/C=C/C(=O)N[C@@H](Cc1cc(F)cc(F)c1)C(=O)N[C@H]1COC(=O)[C@@H]2CCCN2C(=O)[C@H](C)NC(=O)[C@@H]2CCCCN2C(=O)[C@@H]2CCCN2C1=O,"microbial growth, broth dilution",,,0.39 µg/mL
CCCCCCCCn1cc[n+](CCCCCCCCCCOc2cc(OCCCCCCCCCC[n+]3ccn(CCCCCCCC)c3)cc(OCCCCCCCCCC[n+]3ccn(CCCCCCCC)c3)c2)c1.[Br-].[Br-].[Br-],,HA-MRSA ATCC 33591,,32 µM
COc1cc(C(=O)Nc2ccc(C(=O)O)c(O)c2)ccc1NC(=O)c1ccc(NC(=O)[C@H](Cc2c[nH]nn2)NC(=O)c2ccc(NC(=O)/C(C)=C/c3ccc(O)cc3)cc2)cc1,broth microdilution,ciprofloxacin-sensitive,,4 µg/mL
O=CCNCCOn1c(=O)n(OCCNCCO)c(=O)n(OCCNCCOn2c(=O)n(OCCNCCO)c(=O)n(OCCNCCO)c2=O)c1=O,"microbial growth, broth dilution",,,2 µg/mL
COc1c(NC(=O)c2ccc(NC(=O)c3ccc(NC(=O)[C@H](Cc4c[nH]nn4)NC(=O)c4ccc(NC(=O)/C(C)=C/c5ccc(O)cc5)cc4)cc3)cc2O)ccc(C(=O)O)c1O,broth microdilution,ciprofloxacin-sensitive,,32 µg/mL
CCCCCCCCCCCCCCCCCCn1cc(CN(CCC(=O)NCCN(CCC(=O)NCCN(CCC(=O)NCCN(C)C)CCC(=O)NCCN(C)C)CCC(=O)NCCN(CCC(=O)NCCN(C)C)CCC(=O)NCCN(C)C)CCC(=O)NCCN(CCC(=O)NCCN(CCC(=O)NCCN(C)C)CCC(=O)NCCN(C)C)CCC(=O)NCCN(CCC(=O)NCCN(C)C)CCC(=O)NCCN(C)C)nn1,,"ATCC 43300 MRSA, LB broth",18 h,> 96 µg/mL
C#CCOc1ccc(CN[C@@]2(C)C[C@H](O[C@H]3[C@H](Oc4c5cc6cc4Oc4ccc(cc4Cl)[C@@H](O)[C@@H](NC(=O)[C@@H](CC(C)C)NC)C(=O)N[C@@H](CC(N)=O)C(=O)N[C@H]6C(=O)N[C@H]4C(=O)N[C@H](C(=O)N[C@H](C(=O)NCC(N)=O)c6cc(O)cc(O)c6-c6cc4ccc6O)[C@H](O)c4ccc(c(Cl)c4)O5)O[C@H](CO)[C@@H](O)[C@@H]3O)O[C@@H](C)[C@H]2O)cc1OC,broth microdilution,"MSSA ATCC 29213, cation-adjusted Mueller-Hinton broth","20 to 24 h, 37 °C, 0.002% polysorbate 80",0.5 µg/mL
CC1C=CC=CC(C)C2C=CC3CC(C)(O)C(Cl)C(C)C3C2C(=O)C(Cl)(Cl)C(=O)C(C)C(=O)O1 (centres unmarked),,MSSA clinical isolate,"resistant, PEN, ERY, CLI, TET, SXT",0.1 µg/mL
COc1cc(C(=O)O)ccc1NC(=O)c1ccc(NC(=O)c2ccc(NC(=O)[C@H](Cc3c[nH]nn3)NC(=O)c3ccc(NC(=O)/C(C)=C/c4ccc(O)cc4)cc3)cc2)c(OC)c1O,broth microdilution,ciprofloxacin-sensitive,,2 µg/mL
COc1c(NC(=O)c2ccc(NC(=O)c3ccc(NC(=O)[C@H](CC#N)NC(=O)c4ccc(NC(=O)/C(C)=C/c5ccc(O)cc5)cc4)cc3)c(OC)c2O)ccc(C(=O)O)c1O,microbial growth,ATCC29213,,0.4 µg/mL
CCCCCC[N+](C)(C)CCCCOc1cc(OCCCC[N+](C)(C)CCCCCC)cc(OCCCC[N+](C)(C)CCCCCC)c1.[Br-].[Br-].[Br-],,HA-MRSA ATCC 33591,,125 µM
CC[C@H]1OC(=O)[C@H](C)[C@@H](OC(=O)Cc2ccc(OC(F)(F)F)cc2)[C@H](C)[C@@H](O[C@@H]2O[C@H](C)C[C@H](N(C)C)[C@H]2O)[C@](C)(OC)C[C@@H](C)C(=O)[C@H](C)[C@@H](O)[C@]1(C)O,microbial growth,BAA976,,16 µg/mL
CCCCCCn1cc[n+](CCCCCCCCOc2cc(OCCCCCCCC[n+]3ccn(CCCCCC)c3)cc(OCCCCCCCC[n+]3ccn(CCCCCC)c3)c2)c1.[Br-].[Br-].[Br-],,HA-MRSA ATCC 33591,,1 µM
CC[C@H]1OC(=O)[C@H](C)[C@@H](OC(=O)Cc2ccc(OC)cc2)[C@H](C)[C@@H](O[C@@H]2O[C@H](C)C[C@H](N(C)C)[C@H]2O)[C@](C)(OC)C[C@@H](C)C(=O)[C@H](C)[C@@H](O)[C@]1(C)O,microbial growth,BAA976,,8 µg/mL
COc1c(C)c(O)c(C(=O)C=Cc2ccccc2)c(OC)c1C,"microbial growth, broth dilution",ATCC25923,,5000 µg/mL
